Measurements collected from several papers.
Each line is one published result; not all experiments were run side by side. ± marks the error that the study gave.
ABCG2: Broad substrate specificity ATP-binding cassette transporter ABCG2 (ABCG2, Homo sapiens, UniProt Q9UNQ0)
Chain of UniProt Q9UNQ0 (whole entry, looked up): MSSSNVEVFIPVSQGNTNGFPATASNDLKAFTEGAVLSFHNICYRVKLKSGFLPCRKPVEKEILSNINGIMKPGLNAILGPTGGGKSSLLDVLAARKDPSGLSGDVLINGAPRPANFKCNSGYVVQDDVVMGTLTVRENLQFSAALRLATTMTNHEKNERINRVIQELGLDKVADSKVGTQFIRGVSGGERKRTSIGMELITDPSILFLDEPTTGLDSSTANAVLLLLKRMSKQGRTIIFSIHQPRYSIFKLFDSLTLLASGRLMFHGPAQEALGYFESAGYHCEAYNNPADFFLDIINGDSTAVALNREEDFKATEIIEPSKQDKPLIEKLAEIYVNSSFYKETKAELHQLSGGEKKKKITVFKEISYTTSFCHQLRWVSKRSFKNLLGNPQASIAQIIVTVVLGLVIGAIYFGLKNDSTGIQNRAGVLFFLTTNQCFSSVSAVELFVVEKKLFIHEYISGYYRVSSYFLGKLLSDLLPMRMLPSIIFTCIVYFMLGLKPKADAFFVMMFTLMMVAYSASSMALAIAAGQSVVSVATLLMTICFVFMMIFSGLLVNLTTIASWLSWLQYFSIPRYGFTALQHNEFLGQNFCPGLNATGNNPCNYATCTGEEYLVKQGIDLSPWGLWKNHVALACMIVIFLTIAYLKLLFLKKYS
Chain of UniProt Q9NPD5 (whole entry, looked up): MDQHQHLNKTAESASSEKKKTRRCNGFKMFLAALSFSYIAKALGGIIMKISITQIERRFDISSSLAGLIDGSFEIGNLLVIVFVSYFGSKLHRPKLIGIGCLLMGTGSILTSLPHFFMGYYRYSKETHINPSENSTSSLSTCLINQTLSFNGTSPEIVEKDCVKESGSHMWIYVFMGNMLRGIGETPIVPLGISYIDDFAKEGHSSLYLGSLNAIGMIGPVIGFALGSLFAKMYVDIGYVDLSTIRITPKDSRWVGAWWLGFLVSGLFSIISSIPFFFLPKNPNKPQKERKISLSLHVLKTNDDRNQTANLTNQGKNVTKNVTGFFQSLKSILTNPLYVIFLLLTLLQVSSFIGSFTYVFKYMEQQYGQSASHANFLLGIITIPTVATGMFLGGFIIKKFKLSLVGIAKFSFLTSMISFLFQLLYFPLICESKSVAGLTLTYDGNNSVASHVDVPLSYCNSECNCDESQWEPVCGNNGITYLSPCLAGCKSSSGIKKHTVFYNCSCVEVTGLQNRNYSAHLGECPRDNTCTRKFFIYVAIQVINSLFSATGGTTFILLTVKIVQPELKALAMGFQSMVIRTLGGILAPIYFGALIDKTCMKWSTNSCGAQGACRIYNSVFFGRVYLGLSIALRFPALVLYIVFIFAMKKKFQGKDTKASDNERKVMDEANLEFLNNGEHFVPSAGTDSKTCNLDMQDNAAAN
Chain of UniProt P00760 (whole entry, looked up): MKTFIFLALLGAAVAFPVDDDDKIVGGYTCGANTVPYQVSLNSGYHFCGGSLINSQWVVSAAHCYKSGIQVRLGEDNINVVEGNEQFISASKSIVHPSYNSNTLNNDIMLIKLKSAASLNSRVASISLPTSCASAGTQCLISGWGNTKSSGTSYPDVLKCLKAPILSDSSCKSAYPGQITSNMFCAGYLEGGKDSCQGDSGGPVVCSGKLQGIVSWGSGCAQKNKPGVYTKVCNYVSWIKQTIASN
Chain of UniProt P11509 (whole entry, looked up): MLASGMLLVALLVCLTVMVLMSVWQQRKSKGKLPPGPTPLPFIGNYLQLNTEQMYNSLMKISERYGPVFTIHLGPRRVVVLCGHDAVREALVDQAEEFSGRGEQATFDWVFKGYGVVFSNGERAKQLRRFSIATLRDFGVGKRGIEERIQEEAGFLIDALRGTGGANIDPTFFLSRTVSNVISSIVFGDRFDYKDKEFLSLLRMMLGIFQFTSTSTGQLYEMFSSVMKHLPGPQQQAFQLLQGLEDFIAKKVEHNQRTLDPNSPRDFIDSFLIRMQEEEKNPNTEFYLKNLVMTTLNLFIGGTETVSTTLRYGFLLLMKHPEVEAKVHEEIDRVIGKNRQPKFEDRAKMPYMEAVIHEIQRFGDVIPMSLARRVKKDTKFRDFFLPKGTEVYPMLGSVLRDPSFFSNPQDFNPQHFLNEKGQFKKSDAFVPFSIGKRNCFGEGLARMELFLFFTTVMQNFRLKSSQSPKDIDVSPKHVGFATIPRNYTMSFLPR

`CCCCCCCCCCCCCCN(C)C`: “intrinsic clearance in vitro” 1.29 mL/h/mg S9 protein (Oncorhynchus mykiss; liver S9 substrate depletion; rainbow trout liver S9; tested individually).
`O=C(c1ccoc1)N1CCN(c2cc(-c3ccco3)nc3cc(-c4ccccc4)nn23)CC1` gave an IC50 of 0.13 ± 0.03 µM (ABCG2; JC-1 dye efflux, inhibitor, flow cytometry; ABCG2-overexpressing cells; added: JC-1 1 µM).
`COc1cc2nccc(Oc3ccc(NC(=O)Nc4ccc(C=C5CCNCC5)cc4)c(F)c3)c2cc1OC` gave a selectivity index of 18 fold (Plasmodium falciparum; HepG2, 3D7; relative to: HepG2 CC50 over P. falciparum EC50).
`CCCCCCCCCCN(C)C`: “intrinsic clearance in vivo” 331 mL/h/g liver (Oncorhynchus mykiss; liver S9 substrate depletion; rainbow trout liver S9; tested individually).
With `CC(=O)N1CCN(c2cc(-c3ccccc3)nc3cc(-c4cccc(Cl)c4)nn23)CC1` the IC50 was 6.07 ± 0.73 µM (ABCG2; JC-1 dye efflux, inhibitor, flow cytometry; ABCG2-overexpressing cells; added: JC-1 1 µM).
Under “intrinsic clearance in vivo”, `CCCCCCCCCCNC` is recorded as 51 mL/h/g liver (Oncorhynchus mykiss; liver S9 substrate depletion; rainbow trout liver S9; tested individually).
The EC50 of `CC/C(=C(\c1ccccc1)c1ccc(OCCN(C)C)cc1)c1ccccc1` is reported as 26.3 µM (MDA-MB-231; necrosis; 24 h).
The Cmax of `CNCc1ccc(-c2[nH]c3cc(F)cc4c3c2CCNC4=O)cc1` is reported as 261 ng/mL (human patients, plasma; oral, 160 mg once daily, day 1, single dose, arithmetic mean).
For `COc1cccc(-c2cc(N3CCN(C(=O)c4ccoc4)CC3)n3nc(-c4ccccc4)cc3n2)c1`, the IC50 was 0.2 µM (ABCG2; JC-1 dye efflux, inhibitor, flow cytometry; ABCG2-overexpressing cells; added: JC-1 1 µM).
With `C=CC(=O)N1CCC([C@@H]2CCNc3c(C(N)=O)c(-c4ccc(Oc5ccccc5)cc4)nn32)CC1` the remaining activity was 74.1 ± 10% (SLCO1B3 (Homo sapiens, UniProt Q9NPD5); transport, refers to: estradiol-17β-glucuronide uptake; HEK293 transfected; 5 µM; relative to: vehicle).
`O=C(c1ccccc1)N1CCN(c2cc(-c3ccccc3)nc3cc(-c4cccc(Cl)c4)nn23)CC1` gave an IC50 of 1.45 ± 0.59 µM (ABCG2; JC-1 dye efflux, inhibitor, flow cytometry; ABCG2-overexpressing cells; added: JC-1 1 µM).
`CC[C@H](C)[C@H](NC(=O)[C@H](CCC(=O)O)NC(=O)[C@H](CO)NC(=O)[C@@H](NC(=O)[C@@H](N)CO)C(C)C)C(=O)N[C@@H](CCC(N)=O)C(=O)N[C@@H](CC(C)C)C(=O)N[C@@H](CCSC)C(=O)N[C@@H](Cc1cnc[nH]1)C(=O)N[C@@H](CC(N)=O)C(=O)N[C@@H](CC(C)C)C(=O)NCC(=O)N[C@@H](CCCCN)C(=O)N[C@@H](Cc1cnc[nH]1)C(=O)N[C@@H](CC(C)C)C(=O)N[C@@H](CC(N)=O)C(=O)N[C@@H](CO)C(=O)N[C@@H](CCSC)C(=O)N[C@@H](CCC(=O)O)C(=O)N[C@@H](CCCN=C(N)N)C(=O)N[C@H](C(=O)N[C@@H](CCC(=O)O)C(=O)N[C@@H](Cc1c[nH]c2ccccc12)C(=O)N[C@@H](CC(C)C)C(=O)N[C@@H](CCCN=C(N)N)C(=O)N[C@@H](CCCCN)C(=O)N[C@@H](CCCCN)C(=O)N[C@@H](CC(C)C)C(=O)N[C@@H](CCC(N)=O)C(=O)N[C@@H](CC(=O)O)C(=O)N[C@H](C(=O)N[C@@H](Cc1cnc[nH]1)C(=O)N[C@@H](CC(N)=O)C(=O)N[C@@H](Cc1ccccc1)C(=O)O)C(C)C)C(C)C` — result for “remaining intact compound”: 0% (Serine protease 1 (PRSS1, Bos taurus, UniProt P00760); substrate, HPLC-UV; Tris buffer; 10 min, pH 6.5, 37 °C, added: bovine trypsin 0.5 mg, no SBTI).
With `Cn1c(-c2ccc(C(N)=O)cc2F)nnc1C(C)(C)Oc1c(F)cc(Cl)cc1F` the Cmax mean was 171 ng/mL (healthy young Japanese subjects, plasma; oral, 10 mg once daily, day 18, 14 days dosing).
Under “intrinsic clearance in vitro”, `CCCCCCCCCCCC[N+](C)(C)Cc1ccccc1` is recorded as 0.142 mL/h/mg S9 protein (Oncorhynchus mykiss; liver S9 substrate depletion; pooled rainbow trout liver S9; pH 7.8, tested individually).
`O=C1CC(c2ccccc2)Oc2ccccc21` (stereo not drawn) has a Km of 49 µM (Cytochrome P450 2A6 (CYP2A6, Homo sapiens, UniProt P11509); substrate, refers to: hydroxy metabolite M1 formation; reconstituted system).

Repeated from above:
Under “intrinsic clearance in vivo”, `CCCCCCCCCCNC` is recorded as 51 mL/h/g liver (Oncorhynchus mykiss; liver S9 substrate depletion; rainbow trout liver S9; tested individually).
